Results pooled from the literature.
Parts stem from different laboratories: compare values within a part only. Positions count from the first letter of the parent shown.
Sequence of UniProt P30530 (whole entry, looked up): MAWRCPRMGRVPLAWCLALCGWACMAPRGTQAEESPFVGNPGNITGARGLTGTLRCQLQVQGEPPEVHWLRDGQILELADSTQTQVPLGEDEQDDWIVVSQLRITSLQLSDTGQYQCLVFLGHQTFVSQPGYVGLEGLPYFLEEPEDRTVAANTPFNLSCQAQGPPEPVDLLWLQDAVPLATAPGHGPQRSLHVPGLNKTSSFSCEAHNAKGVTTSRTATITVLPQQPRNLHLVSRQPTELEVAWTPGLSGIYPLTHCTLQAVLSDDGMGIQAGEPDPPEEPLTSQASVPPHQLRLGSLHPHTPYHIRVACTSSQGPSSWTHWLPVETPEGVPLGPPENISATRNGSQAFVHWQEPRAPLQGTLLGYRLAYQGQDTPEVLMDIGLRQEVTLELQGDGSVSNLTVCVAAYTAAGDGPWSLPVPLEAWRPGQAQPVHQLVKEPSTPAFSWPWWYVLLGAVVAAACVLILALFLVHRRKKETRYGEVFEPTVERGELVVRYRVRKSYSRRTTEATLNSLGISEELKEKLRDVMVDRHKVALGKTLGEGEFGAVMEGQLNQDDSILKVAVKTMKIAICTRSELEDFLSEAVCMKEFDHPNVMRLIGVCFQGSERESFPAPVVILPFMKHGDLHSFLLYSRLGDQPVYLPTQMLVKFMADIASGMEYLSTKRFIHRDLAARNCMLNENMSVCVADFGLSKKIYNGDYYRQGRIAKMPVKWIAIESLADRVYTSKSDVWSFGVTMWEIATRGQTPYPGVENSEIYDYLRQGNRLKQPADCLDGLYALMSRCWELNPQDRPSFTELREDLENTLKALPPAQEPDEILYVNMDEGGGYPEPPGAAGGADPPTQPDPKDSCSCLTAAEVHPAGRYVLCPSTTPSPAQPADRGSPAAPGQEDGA
Sequence of UniProt Q13554 (whole entry, looked up): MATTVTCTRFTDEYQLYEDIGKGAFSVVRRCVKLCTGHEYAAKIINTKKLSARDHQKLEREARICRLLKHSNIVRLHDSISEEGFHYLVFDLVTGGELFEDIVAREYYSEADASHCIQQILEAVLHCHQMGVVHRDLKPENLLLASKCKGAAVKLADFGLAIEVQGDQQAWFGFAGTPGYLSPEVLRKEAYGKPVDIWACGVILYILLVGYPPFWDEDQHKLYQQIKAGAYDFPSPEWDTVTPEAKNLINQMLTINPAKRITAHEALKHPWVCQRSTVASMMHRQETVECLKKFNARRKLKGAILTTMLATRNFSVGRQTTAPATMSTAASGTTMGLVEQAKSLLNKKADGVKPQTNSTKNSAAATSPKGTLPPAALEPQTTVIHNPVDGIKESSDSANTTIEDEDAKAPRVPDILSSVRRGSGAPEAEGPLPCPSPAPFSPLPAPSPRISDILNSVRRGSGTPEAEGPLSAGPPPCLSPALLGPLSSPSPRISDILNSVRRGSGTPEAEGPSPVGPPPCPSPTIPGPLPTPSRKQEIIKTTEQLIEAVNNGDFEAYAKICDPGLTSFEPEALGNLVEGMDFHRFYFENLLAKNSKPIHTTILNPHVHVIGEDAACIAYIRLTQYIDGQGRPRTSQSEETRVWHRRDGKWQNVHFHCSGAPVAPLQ
Sequence of UniProt P29322 (whole entry, looked up): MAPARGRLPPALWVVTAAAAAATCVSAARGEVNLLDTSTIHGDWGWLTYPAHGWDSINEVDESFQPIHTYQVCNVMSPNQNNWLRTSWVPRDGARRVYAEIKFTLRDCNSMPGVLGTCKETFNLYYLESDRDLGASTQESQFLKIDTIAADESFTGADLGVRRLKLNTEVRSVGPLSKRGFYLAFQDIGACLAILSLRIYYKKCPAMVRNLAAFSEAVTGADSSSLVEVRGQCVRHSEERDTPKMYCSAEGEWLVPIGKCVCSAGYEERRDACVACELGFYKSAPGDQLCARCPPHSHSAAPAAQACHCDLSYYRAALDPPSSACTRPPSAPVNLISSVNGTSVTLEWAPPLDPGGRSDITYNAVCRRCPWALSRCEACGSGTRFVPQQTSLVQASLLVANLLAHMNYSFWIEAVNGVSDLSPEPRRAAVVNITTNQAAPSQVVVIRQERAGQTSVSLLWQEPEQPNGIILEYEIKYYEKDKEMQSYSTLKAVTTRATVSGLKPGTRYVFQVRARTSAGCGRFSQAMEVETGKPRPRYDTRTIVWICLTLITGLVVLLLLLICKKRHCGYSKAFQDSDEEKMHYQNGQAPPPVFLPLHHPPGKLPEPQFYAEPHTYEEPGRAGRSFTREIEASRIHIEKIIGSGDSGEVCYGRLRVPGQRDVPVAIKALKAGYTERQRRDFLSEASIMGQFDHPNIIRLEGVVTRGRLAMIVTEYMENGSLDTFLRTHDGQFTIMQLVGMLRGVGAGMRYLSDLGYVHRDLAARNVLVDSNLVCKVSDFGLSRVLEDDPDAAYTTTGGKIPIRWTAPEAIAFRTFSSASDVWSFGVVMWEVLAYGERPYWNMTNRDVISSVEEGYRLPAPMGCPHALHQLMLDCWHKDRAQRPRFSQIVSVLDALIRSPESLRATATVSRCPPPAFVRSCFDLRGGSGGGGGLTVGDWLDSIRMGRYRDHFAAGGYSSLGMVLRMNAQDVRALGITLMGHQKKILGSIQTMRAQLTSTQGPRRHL
Sequence of UniProt P51451 (whole entry, looked up): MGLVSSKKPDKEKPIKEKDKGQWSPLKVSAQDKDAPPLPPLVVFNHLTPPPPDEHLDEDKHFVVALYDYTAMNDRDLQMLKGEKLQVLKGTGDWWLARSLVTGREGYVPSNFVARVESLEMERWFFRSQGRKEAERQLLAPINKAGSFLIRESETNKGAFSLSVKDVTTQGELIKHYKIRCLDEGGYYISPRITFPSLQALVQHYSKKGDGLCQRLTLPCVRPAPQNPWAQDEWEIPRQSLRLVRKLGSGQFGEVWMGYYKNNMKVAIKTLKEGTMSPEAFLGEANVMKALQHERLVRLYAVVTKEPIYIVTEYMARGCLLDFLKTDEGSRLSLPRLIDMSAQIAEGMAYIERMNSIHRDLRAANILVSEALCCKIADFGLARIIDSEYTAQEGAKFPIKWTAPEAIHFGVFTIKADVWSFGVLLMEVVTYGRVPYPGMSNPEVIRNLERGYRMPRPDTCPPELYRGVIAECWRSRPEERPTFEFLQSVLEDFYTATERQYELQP
Sequence of UniProt Q00532 (whole entry, looked up): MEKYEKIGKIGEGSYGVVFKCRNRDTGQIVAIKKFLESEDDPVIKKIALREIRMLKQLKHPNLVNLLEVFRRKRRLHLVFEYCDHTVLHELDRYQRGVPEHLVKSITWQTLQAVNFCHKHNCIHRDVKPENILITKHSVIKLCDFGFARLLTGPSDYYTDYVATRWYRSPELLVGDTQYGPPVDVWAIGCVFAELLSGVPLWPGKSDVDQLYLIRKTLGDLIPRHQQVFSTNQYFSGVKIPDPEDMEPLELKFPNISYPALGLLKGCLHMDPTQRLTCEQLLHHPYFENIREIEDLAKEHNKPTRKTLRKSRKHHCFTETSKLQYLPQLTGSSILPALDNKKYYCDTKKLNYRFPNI
Sequence of UniProt Q14680 (whole entry, looked up): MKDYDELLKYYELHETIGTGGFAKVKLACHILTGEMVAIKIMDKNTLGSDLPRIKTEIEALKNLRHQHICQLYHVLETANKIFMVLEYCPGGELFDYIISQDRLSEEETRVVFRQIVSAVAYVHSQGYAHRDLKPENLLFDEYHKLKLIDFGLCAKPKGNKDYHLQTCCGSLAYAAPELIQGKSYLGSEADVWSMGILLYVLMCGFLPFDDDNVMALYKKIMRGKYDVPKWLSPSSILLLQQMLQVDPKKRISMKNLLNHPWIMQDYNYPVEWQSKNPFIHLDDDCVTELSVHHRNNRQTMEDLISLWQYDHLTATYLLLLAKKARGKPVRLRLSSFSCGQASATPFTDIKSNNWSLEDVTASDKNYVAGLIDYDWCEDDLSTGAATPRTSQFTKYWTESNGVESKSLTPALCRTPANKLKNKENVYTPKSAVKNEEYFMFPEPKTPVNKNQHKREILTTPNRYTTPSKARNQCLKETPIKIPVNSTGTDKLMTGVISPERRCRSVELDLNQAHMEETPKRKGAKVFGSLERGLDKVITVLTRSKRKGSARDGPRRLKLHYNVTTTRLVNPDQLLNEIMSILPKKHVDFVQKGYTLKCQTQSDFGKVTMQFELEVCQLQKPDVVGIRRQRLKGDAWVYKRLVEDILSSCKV
Sequence of UniProt Q99759 (whole entry, looked up): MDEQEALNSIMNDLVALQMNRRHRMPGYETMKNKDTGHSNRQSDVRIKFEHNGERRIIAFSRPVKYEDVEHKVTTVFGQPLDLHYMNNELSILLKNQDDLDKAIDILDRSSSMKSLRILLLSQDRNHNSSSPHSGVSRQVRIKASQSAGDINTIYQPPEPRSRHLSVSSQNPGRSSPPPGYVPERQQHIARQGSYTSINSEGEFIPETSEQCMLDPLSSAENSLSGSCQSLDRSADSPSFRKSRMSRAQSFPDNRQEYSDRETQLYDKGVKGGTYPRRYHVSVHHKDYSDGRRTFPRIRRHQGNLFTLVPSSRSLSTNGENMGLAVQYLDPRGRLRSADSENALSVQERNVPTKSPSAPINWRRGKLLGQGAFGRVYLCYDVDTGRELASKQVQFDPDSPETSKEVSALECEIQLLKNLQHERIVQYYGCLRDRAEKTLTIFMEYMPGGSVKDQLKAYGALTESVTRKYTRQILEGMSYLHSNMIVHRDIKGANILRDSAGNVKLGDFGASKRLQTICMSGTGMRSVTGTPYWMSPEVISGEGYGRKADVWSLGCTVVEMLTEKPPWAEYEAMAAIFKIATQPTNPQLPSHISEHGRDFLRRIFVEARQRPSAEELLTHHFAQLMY
Sequence of UniProt O75716 (whole entry, looked up): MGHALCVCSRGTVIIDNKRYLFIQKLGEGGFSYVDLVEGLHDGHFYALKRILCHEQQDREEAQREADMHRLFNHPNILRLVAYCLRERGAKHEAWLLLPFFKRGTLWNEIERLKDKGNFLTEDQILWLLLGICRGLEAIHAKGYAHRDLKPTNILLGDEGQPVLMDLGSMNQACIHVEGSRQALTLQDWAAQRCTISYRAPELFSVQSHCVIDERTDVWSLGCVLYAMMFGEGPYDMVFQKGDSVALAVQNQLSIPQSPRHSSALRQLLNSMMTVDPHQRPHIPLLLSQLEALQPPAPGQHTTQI

Series 1
Structure (SMILES): CSc1cccnc1N1CCN(Cc2nc3ccccc3[nH]2)CC1
Technique: competition with immobilised ligand
Tested at: 1 µM
Endpoint: remaining binding
DMPK (Homo sapiens, UniProt Q09013); cell-free assay: 81%
EPHA8 (Homo sapiens, UniProt P29322); cell-free assay: 95%
MET (Homo sapiens, UniProt P08581, M1250T); cell-free assay: 98%
CSNK1D (Homo sapiens, UniProt P48730); cell-free assay: 100%
MYLK4 (Homo sapiens, UniProt Q86YV6); cell-free assay: 100%
TXK (Homo sapiens, UniProt P42681); binding: 100%
MAP3K3 (Homo sapiens, UniProt Q99759); cell-free assay: 83%
MELK (Homo sapiens, UniProt Q14680); cell-free assay: 46%
TAOK3 (Homo sapiens, UniProt Q9H2K8); cell-free assay: 93%
CDKL1 (Homo sapiens, UniProt Q00532); binding: 100%
Non-receptor tyrosine-protein kinase TYK2, JH1 (TYK2, Homo sapiens, UniProt P29597); cell-free assay: 100%
MARK4 (Homo sapiens, UniProt Q96L34); cell-free assay: 100%
GSK3B (Homo sapiens, UniProt P49841); cell-free assay: 78%

Series 2
SMILES: Cc1cc(Nc2cc(N3CCN(C)CC3)nc(Sc3ccc(NC(=O)C4CC4)cc3)n2)[nH]n1
Effect on: enzyme activity
Action: inhibitor
Tested at: 0.5 µM
Reference: control
Endpoint: remaining activity
BLK (Homo sapiens, UniProt P51451): 81.4%
DYRK3 (Homo sapiens, UniProt O43781): 105%
Cyclin-dependent kinase 1, with cyclin B (CDK1, Homo sapiens, UniProt P06493): 102%
RPS6KA5 (Homo sapiens, UniProt O75582): 85.7%
RPS6KA6 (Homo sapiens, UniProt Q9UK32): 90.7%
PRKACG (Homo sapiens, UniProt P22612): 112%
HIPK4 (Homo sapiens, UniProt Q8NE63): 95.3%
CAMK2B (Homo sapiens, UniProt Q13554): 118%
MAP4K4 (Homo sapiens, UniProt O95819): 92.8%
EPHA4 (Homo sapiens, UniProt P54764): 72.1%
STK16 (Homo sapiens, UniProt O75716): 52.8%
PHKG1 (Homo sapiens, UniProt Q16816): 69.9%
AXL (Homo sapiens, UniProt P30530): 44.3%
PDPK1 (Homo sapiens, UniProt O15530): 82.7%

Series 3
Target: CCNA1, cyclin fold, Cln2 fusion (human)
Technique: yeast growth competition, sequencing
Matrix: yeast
Notes: weak parent motif
Reference: not given
Direction: higher = stronger binding
Endpoint: normalised enrichment score
Parent: SLBP docking peptide (human); ARYKRKLLINDFG; partner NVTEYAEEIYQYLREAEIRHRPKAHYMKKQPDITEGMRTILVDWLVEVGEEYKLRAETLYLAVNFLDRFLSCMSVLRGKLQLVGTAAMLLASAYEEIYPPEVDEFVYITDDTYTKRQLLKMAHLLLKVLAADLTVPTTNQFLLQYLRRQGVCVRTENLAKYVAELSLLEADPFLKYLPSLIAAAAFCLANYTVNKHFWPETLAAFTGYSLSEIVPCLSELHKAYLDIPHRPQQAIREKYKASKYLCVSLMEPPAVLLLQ
ARYKRKRLINDFG [L7R]: 0.312
ARYKRKILINDFG [L7I]: -0.0513
VRYKRKLLINDFG [A1V]: 0.584
ARYKHKLLINDFG [R5H]: 0.57
ANYKRKLLINDFG [R2N]: 0.607
ARYKRKLLINDHG [F12H]: 0.156
ARYKRKLLINFFG [D11F]: -0.0667
ARKKRKLLINDFG [Y3K]: -0.111

Series 4
Target: FOSL1, bZIP domain (human)
Technique: DHFR protein complementation
Matrix: yeast
Notes: single substitutions, most at no-binding floor
Reference: wild-type JUN-FOS pair
Direction: higher = stronger binding
Endpoint: binding fitness
Parent: JUN, bZIP domain (human); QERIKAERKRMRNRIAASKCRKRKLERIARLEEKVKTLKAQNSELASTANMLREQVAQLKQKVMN; partner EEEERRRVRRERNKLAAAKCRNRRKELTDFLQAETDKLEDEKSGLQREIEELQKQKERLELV
L59A: -1.16 natural log
T48V: -0.385 natural log
E44Q: -0.426 natural log
Q55S: -0.711 natural log
R30A: -0.0458 natural log
R53C: -1.08 natural log
E54A: -0.522 natural log
T37I: -0.385 natural log

Repeated from above (series 1):
EPHA8 (Homo sapiens, UniProt P29322); cell-free assay: 95%
MET (Homo sapiens, UniProt P08581, M1250T); cell-free assay: 98%
CSNK1D (Homo sapiens, UniProt P48730); cell-free assay: 100%
